Results collected from several papers.
Each numbered part is a random draw from the data of one study; scales do not carry over between parts. Values joined by “and” are separate records of one study, mostly repeats; a detail may differ.
Chain of UniProt O00238 (whole entry, looked up): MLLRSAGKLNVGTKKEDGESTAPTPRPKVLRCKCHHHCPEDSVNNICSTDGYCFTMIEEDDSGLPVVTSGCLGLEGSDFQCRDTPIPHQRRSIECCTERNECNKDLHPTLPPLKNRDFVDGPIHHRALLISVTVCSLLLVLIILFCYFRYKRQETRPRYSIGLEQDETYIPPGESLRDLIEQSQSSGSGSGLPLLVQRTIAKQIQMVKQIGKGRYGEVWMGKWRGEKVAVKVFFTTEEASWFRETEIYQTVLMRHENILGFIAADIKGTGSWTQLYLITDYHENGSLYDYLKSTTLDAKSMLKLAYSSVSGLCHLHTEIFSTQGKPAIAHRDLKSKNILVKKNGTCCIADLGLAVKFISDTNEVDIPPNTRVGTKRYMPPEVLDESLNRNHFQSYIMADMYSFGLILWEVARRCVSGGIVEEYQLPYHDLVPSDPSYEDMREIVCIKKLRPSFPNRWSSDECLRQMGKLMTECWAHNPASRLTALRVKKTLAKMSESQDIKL
Chain of UniProt P53350 (whole entry, looked up): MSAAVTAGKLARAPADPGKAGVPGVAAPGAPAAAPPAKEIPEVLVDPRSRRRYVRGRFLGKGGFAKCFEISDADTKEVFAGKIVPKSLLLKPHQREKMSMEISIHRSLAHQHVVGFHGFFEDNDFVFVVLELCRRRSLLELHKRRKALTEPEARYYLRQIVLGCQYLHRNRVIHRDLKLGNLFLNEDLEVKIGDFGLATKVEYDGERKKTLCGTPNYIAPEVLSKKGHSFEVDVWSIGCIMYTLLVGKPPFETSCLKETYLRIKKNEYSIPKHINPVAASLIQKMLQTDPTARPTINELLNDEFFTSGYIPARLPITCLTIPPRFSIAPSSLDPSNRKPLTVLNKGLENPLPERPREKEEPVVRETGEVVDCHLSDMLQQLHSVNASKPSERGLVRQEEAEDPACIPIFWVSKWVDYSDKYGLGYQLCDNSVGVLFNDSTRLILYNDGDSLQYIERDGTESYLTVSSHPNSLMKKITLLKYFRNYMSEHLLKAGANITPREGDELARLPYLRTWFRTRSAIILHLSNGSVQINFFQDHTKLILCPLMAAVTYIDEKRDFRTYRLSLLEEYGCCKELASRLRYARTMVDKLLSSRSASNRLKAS

Series 1
Target: Misshapen-like kinase 1 (MINK1, Homo sapiens, UniProt Q8N4C8)
Chain of UniProt Q8N4C8 (whole entry, looked up): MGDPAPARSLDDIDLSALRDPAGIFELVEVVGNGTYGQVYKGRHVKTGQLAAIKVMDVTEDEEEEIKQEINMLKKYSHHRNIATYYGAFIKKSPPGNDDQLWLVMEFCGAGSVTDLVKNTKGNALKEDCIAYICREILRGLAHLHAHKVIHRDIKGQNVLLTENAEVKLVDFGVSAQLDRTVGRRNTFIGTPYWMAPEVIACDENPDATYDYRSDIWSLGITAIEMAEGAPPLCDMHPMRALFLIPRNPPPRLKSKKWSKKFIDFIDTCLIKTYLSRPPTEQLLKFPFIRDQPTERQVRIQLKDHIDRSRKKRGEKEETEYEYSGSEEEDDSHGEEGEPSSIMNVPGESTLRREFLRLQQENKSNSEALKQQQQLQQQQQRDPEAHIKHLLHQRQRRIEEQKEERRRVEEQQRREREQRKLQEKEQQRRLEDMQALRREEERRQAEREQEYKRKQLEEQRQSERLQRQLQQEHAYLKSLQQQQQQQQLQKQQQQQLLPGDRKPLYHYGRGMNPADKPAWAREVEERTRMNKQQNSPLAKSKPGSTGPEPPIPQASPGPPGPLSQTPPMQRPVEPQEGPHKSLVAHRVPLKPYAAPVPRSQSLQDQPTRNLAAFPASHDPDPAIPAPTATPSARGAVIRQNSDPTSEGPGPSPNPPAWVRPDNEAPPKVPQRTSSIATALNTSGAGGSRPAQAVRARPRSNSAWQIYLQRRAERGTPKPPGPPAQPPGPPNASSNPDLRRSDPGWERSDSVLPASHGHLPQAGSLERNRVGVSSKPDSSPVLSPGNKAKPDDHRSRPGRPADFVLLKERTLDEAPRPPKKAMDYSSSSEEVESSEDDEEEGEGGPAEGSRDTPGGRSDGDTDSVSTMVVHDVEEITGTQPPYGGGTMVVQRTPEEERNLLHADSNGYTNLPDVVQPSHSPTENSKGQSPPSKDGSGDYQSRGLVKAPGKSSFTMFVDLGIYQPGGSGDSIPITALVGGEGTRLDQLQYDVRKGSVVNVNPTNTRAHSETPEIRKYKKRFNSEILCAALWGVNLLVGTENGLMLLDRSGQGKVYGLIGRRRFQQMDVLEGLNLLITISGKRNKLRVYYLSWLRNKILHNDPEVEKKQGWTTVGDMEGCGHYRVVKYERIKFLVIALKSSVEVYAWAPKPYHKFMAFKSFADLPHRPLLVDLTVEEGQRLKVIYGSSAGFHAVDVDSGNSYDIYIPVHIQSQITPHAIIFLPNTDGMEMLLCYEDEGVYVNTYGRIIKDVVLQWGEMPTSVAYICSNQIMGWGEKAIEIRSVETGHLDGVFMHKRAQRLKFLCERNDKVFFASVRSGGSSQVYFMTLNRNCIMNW
Observed: enzyme activity
Mode: inhibitor
Concentration: 0.5 µM
Relative to: control
`Nc1[nH]nc2nc3ccccc3nc12` has a remaining activity of 97.9%.
`NCCNc1ncc(C(N)=O)c(Nc2cccc(C(F)(F)F)c2)n1` has a remaining activity of 70%.
`O=C1NC(=O)C(c2cn(CCCn3ccnc3)c3ccccc23)=C1Nc1ccccc1` gave a remaining activity of 90.1%.
`CC(C)[C@H](CO)Nc1nc(Nc2cc(N)cc(Cl)c2)c2ncn(C(C)C)c2n1` has a remaining activity of 94.5%.
For `Cc1ccc(NC(=O)c2ccc(CN3CCN(C)CC3)cc2)cc1Nc1nc(-c2cccnc2)cs1`, the remaining activity was 86.7%.
`OCC(O)CCON=C1C(c2c(O)[nH]c3ccccc23)=Nc2ccccc21` (centres unmarked) gave a remaining activity of 21%.
With `CCOC(=O)c1c(C)[nH]c(/C=C2\C(=O)Nc3ccccc32)c1C` the remaining activity was 88.9%.
`CO[C@H]1C[C@@H]2CC[C@@H](C)[C@@](O)(O2)C(=O)C(=O)N2CCCC[C@H]2C(=O)O[C@H]([C@H](C)C[C@@H]2CC[C@@H](O)[C@H](OC)C2)CC(=O)[C@H](C)/C=C(\C)[C@@H](O)[C@@H](OC)C(=O)[C@H](C)C[C@H](C)/C=C/C=C/C=C/1C` gave a remaining activity of 100%.
For `O=C(O)c1ccc2c3c1cccc3c(=O)n1c3ccccc3nc21`, the remaining activity was 79.8%.
With `Cn1c2ccccc2c2c3c(c4c5ccccc5n(CCC#N)c4c21)CNC3=O` the remaining activity was 2.48%.
`N#CC(C#N)=C(N)/C(C#N)=C/c1ccc(O)cc1` has a remaining activity of 97.7%.
`O=S(=O)(c1cccc2cnccc12)N1CCCNCC1` gave a remaining activity of 96.6%.
With `Oc1ccc(-c2nc(-c3ccncc3)c(-c3ccc(F)cc3)[nH]2)cc1` the remaining activity was 102%.
`COc1ccc(CNC(=O)Nc2ncc([N+](=O)[O-])s2)cc1` gave a remaining activity of 90.5%.
With `O=C(Nc1cccc(Nc2cc(Nc3cccc(C(F)(F)F)c3)ncn2)c1)C1CC1` the remaining activity was 95.9%.
`Cc1ccc(Nc2nccc(N(C)c3ccc4c(C)n(C)nc4c3)n2)cc1S(N)(=O)=O` has a remaining activity of 73.7%.

Series 2
Host: human
Sample: microsomes or S9
Concentration: 2 µM
Time: 0.5 h
For `O=S(=O)(O)c1ccc(-c2cnc(-c3ccc(-c4ncc(-c5ccc(S(=O)(=O)O)cc5)o4)cc3)o2)cc1`, the remaining compound was 83.8%.
For `Cc1ccccc1CNc1ccccc1NC(=O)c1ccc(C(=O)c2cc[nH]c2)cc1`, the remaining compound was 16.7%.
The remaining compound of `Cc1cnc(C2CC2)n1C1CCCN(C(=O)c2ccccn2)C1` (centres unmarked) is reported as over 100%.
`c1ccc(-c2cc(CNCC3COCCO3)c3nnnn3c2)cc1` (centres unmarked) gave a remaining compound of 48.1%.
`O=S1(=O)CC2Sc3ncnc4ncn(c34)C2C1` (centres unmarked) gave a remaining compound of over 99%.
The remaining compound of `Cn1nc(C(=O)NCCn2ccc(-c3ccsc3)n2)ccc1=O` is reported as 67.5%.
With `CCOC(=O)c1ccc(-c2ccc(C3CC(=O)Nc4cc5c(cc43)OCO5)o2)cc1` (centres unmarked) the remaining compound was 61.7%.

Series 3
Structure (SMILES): CN(C)c1ncnc(-c2ccc3nc(Nc4cc(CN5CCN(C(=O)CC(F)(F)F)CC5)ccn4)[nH]c3c2)c1Cl
Observed: cell-free assay
Method: competition with immobilised ligand
Concentration: 1 µM
The remaining binding was 59% (Bone morphogenetic protein receptor type-1B (BMPR1B, Homo sapiens, UniProt O00238)).
The remaining binding was 51% (Non-receptor tyrosine-protein kinase TYK2, JH1 (TYK2, Homo sapiens, UniProt P29597)).
The remaining binding was 98% (Serine/threonine-protein kinase 36 (STK36, Homo sapiens, UniProt Q9NRP7)).
The remaining binding was 29% (Phosphatidylinositol 4,5-bisphosphate 3-kinase catalytic subunit alpha isoform (PIK3CA, Homo sapiens, UniProt P42336, E542K)).
For Serine/threonine-protein kinase PLK1 (PLK1, Homo sapiens, UniProt P53350): remaining binding read 59%.
The remaining binding was 100% (Epidermal growth factor receptor (EGFR, Homo sapiens, UniProt P00533, T790M)).
Serine/threonine-protein kinase MRCK beta (CDC42BPB, Homo sapiens, UniProt Q9Y5S2) — remaining binding: 96%.
It gave 100% for remaining binding (Ephrin type-A receptor 7 (EPHA7, Homo sapiens, UniProt Q15375)).
The remaining binding was 100% (Epidermal growth factor receptor (EGFR, Homo sapiens, UniProt P00533, del746-750)).

Series 4
Target: DNA polymerase theta, ATPase domain (POLQ, Homo sapiens, UniProt O75417)
Chain of UniProt O75417 (whole entry, unmodified, looked up): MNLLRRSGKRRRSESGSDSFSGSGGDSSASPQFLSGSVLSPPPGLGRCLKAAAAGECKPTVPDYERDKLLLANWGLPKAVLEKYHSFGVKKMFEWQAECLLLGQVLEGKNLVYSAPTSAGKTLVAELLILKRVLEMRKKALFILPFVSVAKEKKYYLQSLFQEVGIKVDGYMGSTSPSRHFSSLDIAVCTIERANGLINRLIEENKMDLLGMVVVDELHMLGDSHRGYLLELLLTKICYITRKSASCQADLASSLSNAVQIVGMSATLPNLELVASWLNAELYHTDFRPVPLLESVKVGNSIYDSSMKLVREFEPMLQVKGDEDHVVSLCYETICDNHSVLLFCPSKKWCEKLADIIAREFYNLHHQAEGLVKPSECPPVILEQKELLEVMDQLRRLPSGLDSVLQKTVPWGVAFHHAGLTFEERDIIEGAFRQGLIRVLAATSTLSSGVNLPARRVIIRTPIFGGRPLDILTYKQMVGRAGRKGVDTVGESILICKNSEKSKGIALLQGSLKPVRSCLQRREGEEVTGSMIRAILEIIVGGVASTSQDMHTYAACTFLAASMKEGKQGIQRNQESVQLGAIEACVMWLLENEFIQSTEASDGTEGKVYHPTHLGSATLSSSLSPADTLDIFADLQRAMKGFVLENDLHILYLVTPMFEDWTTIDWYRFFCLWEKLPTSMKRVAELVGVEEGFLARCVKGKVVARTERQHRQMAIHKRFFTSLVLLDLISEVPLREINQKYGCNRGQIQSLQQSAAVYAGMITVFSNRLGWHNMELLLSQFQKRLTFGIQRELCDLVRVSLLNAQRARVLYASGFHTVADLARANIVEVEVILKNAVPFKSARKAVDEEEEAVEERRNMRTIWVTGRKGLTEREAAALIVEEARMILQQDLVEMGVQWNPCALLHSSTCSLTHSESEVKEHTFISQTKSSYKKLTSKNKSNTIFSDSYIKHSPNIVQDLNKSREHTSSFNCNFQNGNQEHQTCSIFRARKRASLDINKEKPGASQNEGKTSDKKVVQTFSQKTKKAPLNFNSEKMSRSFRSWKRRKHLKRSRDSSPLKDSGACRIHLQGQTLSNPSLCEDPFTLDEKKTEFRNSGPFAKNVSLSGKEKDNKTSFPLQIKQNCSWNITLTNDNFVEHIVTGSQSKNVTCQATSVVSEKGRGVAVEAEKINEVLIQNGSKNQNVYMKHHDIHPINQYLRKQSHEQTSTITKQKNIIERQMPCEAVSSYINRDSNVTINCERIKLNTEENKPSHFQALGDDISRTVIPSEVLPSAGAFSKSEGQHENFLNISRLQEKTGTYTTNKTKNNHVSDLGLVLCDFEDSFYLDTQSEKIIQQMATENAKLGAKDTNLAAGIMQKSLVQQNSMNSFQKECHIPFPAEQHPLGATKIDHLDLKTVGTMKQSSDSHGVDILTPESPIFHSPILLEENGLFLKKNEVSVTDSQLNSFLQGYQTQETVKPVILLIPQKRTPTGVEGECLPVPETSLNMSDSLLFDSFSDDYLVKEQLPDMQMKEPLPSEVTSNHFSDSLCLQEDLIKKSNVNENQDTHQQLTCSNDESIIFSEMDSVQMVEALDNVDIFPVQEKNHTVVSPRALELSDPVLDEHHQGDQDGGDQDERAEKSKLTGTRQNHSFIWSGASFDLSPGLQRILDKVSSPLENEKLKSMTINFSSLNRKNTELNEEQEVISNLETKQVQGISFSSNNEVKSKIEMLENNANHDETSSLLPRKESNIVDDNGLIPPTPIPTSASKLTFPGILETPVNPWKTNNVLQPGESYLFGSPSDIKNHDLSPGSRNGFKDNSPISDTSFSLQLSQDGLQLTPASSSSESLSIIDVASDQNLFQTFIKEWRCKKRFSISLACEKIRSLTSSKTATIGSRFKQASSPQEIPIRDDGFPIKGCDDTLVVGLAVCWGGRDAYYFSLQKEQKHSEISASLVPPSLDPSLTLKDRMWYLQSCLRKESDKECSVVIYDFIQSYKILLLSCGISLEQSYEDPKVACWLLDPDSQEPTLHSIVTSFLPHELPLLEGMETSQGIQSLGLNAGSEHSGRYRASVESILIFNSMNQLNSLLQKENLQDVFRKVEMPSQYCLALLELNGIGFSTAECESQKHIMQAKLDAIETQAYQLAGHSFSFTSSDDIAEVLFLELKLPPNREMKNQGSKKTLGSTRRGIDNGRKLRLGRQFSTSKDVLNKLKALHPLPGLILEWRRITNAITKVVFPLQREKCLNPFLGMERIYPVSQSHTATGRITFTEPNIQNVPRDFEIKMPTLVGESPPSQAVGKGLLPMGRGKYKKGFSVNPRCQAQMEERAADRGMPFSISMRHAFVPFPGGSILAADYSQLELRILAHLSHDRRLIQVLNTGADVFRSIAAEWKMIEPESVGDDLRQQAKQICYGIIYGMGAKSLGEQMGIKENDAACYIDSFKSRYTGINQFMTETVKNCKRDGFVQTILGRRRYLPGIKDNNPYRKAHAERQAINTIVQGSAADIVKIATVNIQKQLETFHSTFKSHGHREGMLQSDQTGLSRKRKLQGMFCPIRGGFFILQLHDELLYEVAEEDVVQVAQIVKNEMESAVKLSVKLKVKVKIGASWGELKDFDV
Observed: enzyme activity
Mode: inhibitor
Concentration: 77 µM
Relative to: untreated
With `O=C(/C=C/c1ccc(O)c(O)c1)c1ccc(O)cc1O` the remaining activity was 95.5%.
`CCCCn1c2ccc(O)cc2c2c3c(c(-c4ccccc4Cl)cc21)C(=O)NC3=O` gave a remaining activity of 98.3%.
`CC(=O)OCOC(=O)CN(CC(=O)OCOC(C)=O)c1ccccc1OCCOc1ccccc1N(CC(=O)OCOC(C)=O)CC(=O)OCOC(C)=O` has a remaining activity of 91.9%.
The remaining activity of `Cn1ccnc1S` is reported as 98.3% and 100%.
For `CC(C)[C@H](N)C(=O)OCC(CO)OCn1cnc2c(=O)nc(N)[nH]c21` (some centres unmarked), the remaining activity was 98%.
`C[C@@H]1NC(=O)NC1=O` has a remaining activity of 102%.
